Measurements from different studies.
Numbered parts are unrelated; each lists some results of a single study.

Block 1 — technique: RNA Bind-n-Seq; form: RNA; sample: in vitro; concentration: 365 nM; reference: no-protein control; direction: higher = stronger binding; measurement: RBNS enrichment (R)
Target: RNA binding protein fox-1 homolog 2, RRM domain, GST-SBP tag (RBFOX2, Homo sapiens, UniProt O43251-10, residues 100-194)
Notes: natural RNA segment, single round, ends assumed
Residues (chain): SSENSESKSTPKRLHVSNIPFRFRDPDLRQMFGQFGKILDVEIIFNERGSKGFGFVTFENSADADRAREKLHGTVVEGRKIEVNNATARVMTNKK
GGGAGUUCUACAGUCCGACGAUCAGGGCCAAGGCAGGAAGGGCCAGGGCCUCCUCUGUCCUUACCAACUCUGGGAAGUCAGCUCUGCCGGCCCGAGAGGGGCGGGCACUUUUUCAGCUUGCUAUAACCCCUUCUGGAAUUCUCGGGUGCCAA: 0.412
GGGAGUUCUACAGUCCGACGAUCCUAAUUCUGCCCCUGUUGGUGCAGAUGGCUGUGGGCGGCUCACUUGACCUUUUAGAGUCUGCAUACCCACCUGUAUAACAAGGUGGAUUGAAUGAGACAAUGCCCACGAAUGGAAUUCUCGGGUGCCAA: 0.27
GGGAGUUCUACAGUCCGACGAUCAGCAAGGUAGCUUGGAAUACCUUUUUUAAAAACAACUGGAUAUAAAUAUGUCUGACAGGAUUGGAAUCAGACUAUGUGAUUUGCUUGUAAAGAUUAGUUUCAGUGAGUCCUGGAAUUCUCGGGUGCCAA: 1.09
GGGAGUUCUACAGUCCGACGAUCUGUGUUCAAUAUCAGCUUUGAUAAUUGUGUACCUUAAGAUAUUGAAGGAGAAAAUAGAUAAUUUACAAGAUAUUAUUAAUUUUUAUUUAUUUUUCUUGGGAAUUGAAAAAUGGAAUUCUCGGGUGCCAA: 1.26
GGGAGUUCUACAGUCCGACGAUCGAUUCUUUGACUAGUGAAAAUCUCAUAAAAUUUAAAUACGUGUGAGUAAAACACAUGCCUGAACACACCAGGUCCAUUUGCUUAUUAUUGUCUGUGGUUGAGUUUACAUUUGGAAUUCUCGGGUGCCAA: 0.981
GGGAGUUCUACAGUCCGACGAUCCUCACCUCAGCCUCCCAAAAUCCUGGGGUUACAGAUGUGAGCUACCACUCACGGCCCAAAUCUUCUUGAUCAUAUGUUUAAAUAUAUUUUUUAAUAUUUGGAGCAUGAGUUGGAAUUCUCGGGUGCCAA: 0.359
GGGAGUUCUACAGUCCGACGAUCCAUGGCAAAUCUGAUUUGUGUAGUGUGCUUACAAUGCUCAUUUGUUUUCAAAUUGGUGGAAAAGAGAAACUGCAGGAAAACUAUUCAUGUUUGAGUUUUACGCAGUAUAUUGGAAUUCUCGGGUGCCAA: 0.928
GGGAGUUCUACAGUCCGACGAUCCCAUCGGAUUGAACAUACACUGUAUAUUUUGCAAUAGUUACCUCAAGGCCUACUGACCAAAUUGUUGUGUCGAGAUAUUUAACUUUUGCCAAAUAAAAUAUAUUGAUUCUUGGAAUUCUCGGGUGCCAA: 0.304
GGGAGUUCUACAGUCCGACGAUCUAAUUGCUGUUGAAAGCAAAAAUGCUAAUAUUAAAAGUCACAGUGUUCUUUAUAUACAAUAAUGGAAAAAAAAAAAAGAGGCAAUUCCUCAAGGGCAUGAGCGGUGGAUAUGGAAUUCUCGGGUGCCAA: 0.649
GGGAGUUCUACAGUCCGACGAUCCCAUGUAUUCCCCACCUGUGUUCCGUUUGACCAGCACAGAAAUAUUAAACGUCCUCUAUUCACCGGGCCCUGUGUGUGUCACCGAGGUGCGGGAGGGGAGGAGCAUUAAAUGGAAUUCUCGGGUGCCAA: 0.424
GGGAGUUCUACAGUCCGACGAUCCAGAGCUGGGCGUCACUUCGCAAGCGUCCUGCCCUGCCGGGGCGCGGGGGUGGGCUCUGGGGAAGCCGGUGCGCCCCCCACGCCUCCGCUGCCAGUGCCUUACAUUCUGGUGGAAUUCUCGGGUGCCAA: 0.259
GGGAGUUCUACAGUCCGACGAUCGUGUGCCGGGCUCUGACUGAGAAACUGAACAAUGGCAGGCGCUUCAUCUGGGCAGCCAUUUUUCUUCUCUGCUUCUCUUGAGAUACAUAGUUAAAGUAGACACGGCCUCCUGGAAUUCUCGGGUGCCAA: 0.32

Block 2 — technique: two-hybrid; reference: out of 4 tests; direction: higher = firmer interaction; measurement: positive tests
Partner: ARF14 497-605 (Arabidopsis thaliana, UniProt Q9LQE8)
B1: ARF8 699-811 (Arabidopsis thaliana, UniProt Q9FGV1); chain NSSNQTKNFVKVYKSGSVGRSLDISRFSSYHELREELGKMFAIEGLLEDPLRSGWQLVFVDKENDILLLGDDPWESFVNNVWYIKILSPEDVHQMGDHGEGSGGLFPQNPTHL
B2: IAA27 (Arabidopsis thaliana, UniProt Q9ZSY8); chain MSVSVAAEHDYIGLSEFPTMEATTMSDKTKTRDNNNGLNFKATELRLGLPGSESPERVDSRFLALNKSSCPVSGAKRVFSDAINDSNKWVFSPGSTTATGDVGSGSGPRTSVVKDGKSTTFTKPAVPVKEKKSSATAPASKAQVVGWPPIRSFRKNSMASSQSQKPGNNSETEEAEAKSGPEQPCLYVKVSMEGAPYLRKIDLKTYKSYLELSSALEKMFSCFTIGQFGSHGGCGRDGLNESRLTDLLRGSEYVVTYEDKDSDWMLVGDVPWEMFICSCKKLRIMKSSEAIGLAPRVMEKCRSRN
B3: IAA33 (Arabidopsis thaliana, UniProt Q9FKM7); chain MNSFEPQSQDSLQRRFHQDNSTTQQPRDTTTPFIPKPASKNHNNSNSSSGAAGRSFQGFGLNVEDDLVSSVVPPVTVVLEGRSICQRISLDKHGSYQSLASALRQMFVDGADSTDDLDLSNAIPGHLIAYEDMENDLLLAGDLTWKDFVRVAKRIRILPVKGNTRQVKRNE
B4: ARF1 538-665 (Arabidopsis thaliana, UniProt Q8L7G0); chain SRQIRSCTKVHMQGSAVGRAIDLTRSECYEDLFKKLEEMFDIKGELLESTKKWQVVYTDDEDDMMMVGDDPWNEFCGMVRKIFIYTPEEVKKLSPKNKLAVNARMQLKADAEENGNTEGRSSSMAGSR
B5: ARF2 727-859 (Arabidopsis thaliana, UniProt Q94JM3); chain TKTNSSRSCTKVHKQGIALGRSVDLSKFQNYEELVAELDRLFEFNGELMAPKKDWLIVYTDEENDMMLVGDDPWQEFCCMVRKIFIYTKEEVRKMNPGTLSCRSEEEAVVGEGSDAKDAKSASNPSLSSAGNS
B6: IAA28 (Arabidopsis thaliana, UniProt Q9XFM0); chain MEEEKRLELRLAPPCHQFTSNNNINGSKQKSSTKETSFLSNNRVEVAPVVGWPPVRSSRRNLTAQLKEEMKKKESDEEKELYVKINMEGVPIGRKVNLSAYNNYQQLSHAVDQLFSKKDSWDLNRQYTLVYEDTEGDKVLVGDVPWEMFVSTVKRLHVLKTSHAFSLSPRKHGKE
B7: ARF12 500-593 (Arabidopsis thaliana, UniProt Q9XID4); chain TEIQNKQFSSSRTCTKVQMQGVTIGRAVDLSVLNGYDQLILELEKLFDIKGQLQTRNQWEIAFTDSDEDKMLVGDDPWPEFCNMVKKIFIQKRR
Residues (chain): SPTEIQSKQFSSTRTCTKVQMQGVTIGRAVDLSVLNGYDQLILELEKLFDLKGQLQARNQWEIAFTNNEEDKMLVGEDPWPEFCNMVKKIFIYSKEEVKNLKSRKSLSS
B1 (ARF8 699-811): 0
B2 (IAA27): 0
B3 (IAA33): 0
B4 (ARF1 538-665): 0
B5 (ARF2 727-859): 0
B6 (IAA28): 0
B7 (ARF12 500-593): 1

Block 3 — technique: protein-binding microarray; form: double-stranded DNA, one strand shown; sample: in vitro; concentration: 2200 nM top; notes: 60-bp whole probe; added: salmon DNA 0.4 mg/ml; reference: random background probes; direction: higher = stronger binding; measurement: fitted relative affinity; all sequences stand within: GCCTAGCAC … GTCTTGATTCGCTTGACGCTGCTG
Target: Interferon regulatory factor 7, full length, phosphomimetic (IRF7, Homo sapiens, UniProt Q92985, residues 1-503, S471D/S472D/S475D/S476D/S477D/S483D/S484D/S487D)
Chain of UniProt Q92985 (whole entry, unmodified, looked up): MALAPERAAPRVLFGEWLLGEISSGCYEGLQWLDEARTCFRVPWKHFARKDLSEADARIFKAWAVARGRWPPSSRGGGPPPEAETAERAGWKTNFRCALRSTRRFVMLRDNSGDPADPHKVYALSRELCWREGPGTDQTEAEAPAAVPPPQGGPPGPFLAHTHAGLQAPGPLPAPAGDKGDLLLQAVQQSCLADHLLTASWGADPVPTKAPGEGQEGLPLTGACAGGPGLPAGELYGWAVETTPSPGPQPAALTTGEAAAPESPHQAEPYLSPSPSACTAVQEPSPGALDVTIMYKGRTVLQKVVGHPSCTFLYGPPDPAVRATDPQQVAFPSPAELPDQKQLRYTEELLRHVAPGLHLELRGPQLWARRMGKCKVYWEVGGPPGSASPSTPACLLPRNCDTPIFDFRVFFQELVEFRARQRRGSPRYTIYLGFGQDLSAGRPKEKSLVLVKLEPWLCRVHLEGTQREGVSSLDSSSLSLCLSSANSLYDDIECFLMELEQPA
GACGATTACAGACTGGAGACGTGCTAG: -0.0848 z-score
GACGGTTTCCATTCCCTGACGTGCTAG: 5.18 z-score
TCAATTTTTTTTATTTAACTGTGCTAG: 0.722 z-score
TTAGAATTCAGTTCCGATTAGTGCTAG: 0.607 z-score
GAAGGACTGCTTATCCTGACGTGCTAG: 0.163 z-score
TGGGGGGATCAGGGAAACAGGTGCTAG: 1.85 z-score
TTAGGACTGGCCACTGGGTTAGTGCTA: -1.1 z-score
TTAGATTCCAGTTTCGATCAGTGCTAG: 4.38 z-score
TTAAATATCAGTTTCGATTAGTGCTAG: 5.64 z-score
TTAGATCTGGGGTATCGATTAGTGCTA: 0.119 z-score
GACGGTCTCGGTATCTGGACGTGCTAG: 0.518 z-score
GACGGTATCGGATATCGGGACGTGCTA: 0.0462 z-score
TTAGAACTGAGACTGGAATAGTGCTAG: -0.849 z-score
TTAGGTTTCGGGCTGGGTTAGTGCTAG: 3.33 z-score
CTTGGCAAGATGAGGAAGATGTGCTAG: -0.822 z-score
TAAGGTTTCGACACTGGGTTAGTGCTA: 1.96 z-score
TTAGATATCAGTATCGATTGGTGCTAG: 0.614 z-score
GTGGCTCACACCTGTCATCCCGTGCTA: 0.377 z-score
GATGATTTCGGGTTTCGAGACGTGCTA: 5.65 z-score

Block 4 — technique: protein binding microarray; form: double-stranded DNA, one strand shown; sample: in vitro; concentration: not given; reference: not given; direction: higher = stronger binding; measurement: E-score
Target: Histone acetyltransferase KAT6A, both winged helices, GST fusion (KAT6A, Homo sapiens, UniProt Q92794, residues 1-181)
Notes: 8-mer, flanks averaged, mean of 2 arrays, mostly near background
Residues (chain): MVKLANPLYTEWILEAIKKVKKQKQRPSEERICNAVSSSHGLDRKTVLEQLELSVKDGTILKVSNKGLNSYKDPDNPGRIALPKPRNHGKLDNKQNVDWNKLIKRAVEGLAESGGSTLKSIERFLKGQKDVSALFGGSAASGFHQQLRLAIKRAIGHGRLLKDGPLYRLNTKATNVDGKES
GGCAGCCC: 0.00693
ATCCGGTC: 0.0716
ACCCCGCG: 0.291
CCACTACC: -0.0621
AGCAACCG: -0.00369
GGTTGGCA: -0.178
ATCTAAAT: -0.0432
CGGTGTAG: 0.121
ACCGAGAC: -0.0199
CTACGGCC: 0.164
CCTGTTGC: -0.0752
CGCTGGGC: 0.0698
GACATGAA: -0.00343
ACCTCTCA: -0.0507
AACAGTAA: -0.0144
ACCGGAGC: 0.123
CCCGGCCA: 0.161
TACATAGA: -0.137
ACGTTGGA: -0.123
GGTATCAA: -0.00568
ACCTGCCG: 0.07

Block 5 — target: UBE2M UBC core domain (UniProt P61081); technique: yeast two-hybrid; sample: yeast; notes: mostly zero background; reference: not given; direction: higher = stronger interaction; measurement: lacZ reporter activity
Chain of UniProt P61081 (whole entry, looked up): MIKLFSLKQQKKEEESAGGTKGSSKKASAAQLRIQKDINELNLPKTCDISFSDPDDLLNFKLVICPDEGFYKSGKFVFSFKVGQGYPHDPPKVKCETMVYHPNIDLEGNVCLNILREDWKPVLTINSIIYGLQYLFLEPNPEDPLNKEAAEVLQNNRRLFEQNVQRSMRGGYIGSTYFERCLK
B8: UBOX5 RING domain (UniProt O94941); chain EQPGSILGPECASCKRVFSPYFKKEPVYQLPCGHLLCRPCLGEKQRSLPMTCTACQRPVASQDVLR
B9: RNF121 RING domain (UniProt Q9H920); chain MPTKHLSDSVCAVCGQQIFVDVSEEGIIENTYRLSCNHVFHEFCIRGWCIVGKKQTCPYCKEKVDLKRMFS
B10: RBCK1 RING domain (UniProt Q9BYM8); chain SLVLNTEPAECPVCYSVLAPGEAVVLRECLHTFCRECLQGTIRNSQEAEVSCPFIDNTYSCSGKLLEREIK
B11: MAP3K1 RING domain (UniProt Q13233); chain NSIKDEEEQMCPICLLGMLDEESLTVCEDGCRNKLHHHCMSIWAEECRRNREPLICPLCRSKWRSHDFYS
B12: SH3RF1 RING domain (UniProt Q7Z6J0); chain DESALLDLLECPVCLERLDASAKVLPCQHTFCKRCLLGIVGSRNELRCPECRTLVGSGVEEL
B13: SYTL4 RING domain (UniProt Q96C24); chain RGSQHYSDRTCARCQESLGRLSPKTNTCRGCNHLVCRDCRIQESNGTWRCKVCAKEIELKKAT
B14: DZIP3 RING domain (UniProt Q86Y13); chain PDEEEEEEEPCVICHENLSPENLSVLPCAHKFHAQCIRPWLMQQGTCPTCRLHVLLPEEFP
B15: ZMIZ2 RING domain (UniProt Q8NF64); chain GTIPGTPGPNGEDGVEQTAIKVSLKCPITFRRIQLPARGHDCRHIQCFDLESYLQLNCERGTWRCPVCNKTALLEGLEVDQYMLGILIYIQNSDYEEITIDPTCSWK
GSRLQEINDVCAICYHEFTTSARITPCNHYFHALCLRKWLYIQDTCPMCHQKVYIEDDIK (RNF139 RING domain (UniProt Q8WU17)): 0
B8 (UBOX5 RING domain): 0
KLRKLKEAMLCMVCCEEEINSTFCPCGHTVCCESCAAQLQSCPVCRSRVEHVQHVY (MYLIP RING domain (UniProt Q8WY64)): 0
B9 (RNF121 RING domain): 0
B10 (RBCK1 RING domain): 0
B11 (MAP3K1 RING domain): 0
B12 (SH3RF1 RING domain): 0
B13 (SYTL4 RING domain): 0
B14 (DZIP3 RING domain): 0
B15 (ZMIZ2 RING domain): 0

Repeated from above (block 5):
KLRKLKEAMLCMVCCEEEINSTFCPCGHTVCCESCAAQLQSCPVCRSRVEHVQHVY (MYLIP RING domain (UniProt Q8WY64)): 0
B9 (RNF121 RING domain): 0
B10 (RBCK1 RING domain): 0
B11 (MAP3K1 RING domain): 0
